Results gathered from unrelated publications.
Each numbered part is a random draw from the data of one study; scales do not carry over between parts.
UniProt P42336, sequence (whole entry, unmodified, looked up): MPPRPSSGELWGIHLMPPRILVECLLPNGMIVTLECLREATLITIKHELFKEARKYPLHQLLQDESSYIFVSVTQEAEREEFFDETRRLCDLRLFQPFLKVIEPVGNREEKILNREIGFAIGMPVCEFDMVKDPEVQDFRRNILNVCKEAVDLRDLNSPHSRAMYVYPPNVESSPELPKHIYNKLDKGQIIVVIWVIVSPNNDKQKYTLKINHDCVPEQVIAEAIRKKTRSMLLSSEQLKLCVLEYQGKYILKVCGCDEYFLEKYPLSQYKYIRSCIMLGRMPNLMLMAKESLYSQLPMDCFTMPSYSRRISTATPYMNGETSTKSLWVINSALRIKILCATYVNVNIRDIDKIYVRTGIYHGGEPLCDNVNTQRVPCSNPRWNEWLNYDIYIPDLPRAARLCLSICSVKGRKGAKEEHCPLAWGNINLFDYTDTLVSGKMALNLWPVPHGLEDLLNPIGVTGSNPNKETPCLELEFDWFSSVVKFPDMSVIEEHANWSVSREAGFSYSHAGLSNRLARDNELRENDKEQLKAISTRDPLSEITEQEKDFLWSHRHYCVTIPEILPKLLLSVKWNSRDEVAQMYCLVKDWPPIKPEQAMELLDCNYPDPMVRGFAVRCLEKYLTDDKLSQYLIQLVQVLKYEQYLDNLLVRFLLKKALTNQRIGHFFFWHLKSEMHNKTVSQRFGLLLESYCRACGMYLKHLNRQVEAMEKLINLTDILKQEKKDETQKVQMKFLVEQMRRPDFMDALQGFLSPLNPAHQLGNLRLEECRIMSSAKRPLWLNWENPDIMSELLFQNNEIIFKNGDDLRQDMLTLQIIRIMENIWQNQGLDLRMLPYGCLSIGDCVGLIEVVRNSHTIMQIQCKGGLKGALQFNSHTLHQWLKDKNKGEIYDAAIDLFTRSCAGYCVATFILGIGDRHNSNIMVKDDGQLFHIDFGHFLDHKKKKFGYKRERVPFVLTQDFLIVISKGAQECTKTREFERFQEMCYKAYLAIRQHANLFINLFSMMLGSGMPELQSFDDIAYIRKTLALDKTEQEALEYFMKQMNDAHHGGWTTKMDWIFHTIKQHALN
UniProt P30530, sequence (whole entry, looked up): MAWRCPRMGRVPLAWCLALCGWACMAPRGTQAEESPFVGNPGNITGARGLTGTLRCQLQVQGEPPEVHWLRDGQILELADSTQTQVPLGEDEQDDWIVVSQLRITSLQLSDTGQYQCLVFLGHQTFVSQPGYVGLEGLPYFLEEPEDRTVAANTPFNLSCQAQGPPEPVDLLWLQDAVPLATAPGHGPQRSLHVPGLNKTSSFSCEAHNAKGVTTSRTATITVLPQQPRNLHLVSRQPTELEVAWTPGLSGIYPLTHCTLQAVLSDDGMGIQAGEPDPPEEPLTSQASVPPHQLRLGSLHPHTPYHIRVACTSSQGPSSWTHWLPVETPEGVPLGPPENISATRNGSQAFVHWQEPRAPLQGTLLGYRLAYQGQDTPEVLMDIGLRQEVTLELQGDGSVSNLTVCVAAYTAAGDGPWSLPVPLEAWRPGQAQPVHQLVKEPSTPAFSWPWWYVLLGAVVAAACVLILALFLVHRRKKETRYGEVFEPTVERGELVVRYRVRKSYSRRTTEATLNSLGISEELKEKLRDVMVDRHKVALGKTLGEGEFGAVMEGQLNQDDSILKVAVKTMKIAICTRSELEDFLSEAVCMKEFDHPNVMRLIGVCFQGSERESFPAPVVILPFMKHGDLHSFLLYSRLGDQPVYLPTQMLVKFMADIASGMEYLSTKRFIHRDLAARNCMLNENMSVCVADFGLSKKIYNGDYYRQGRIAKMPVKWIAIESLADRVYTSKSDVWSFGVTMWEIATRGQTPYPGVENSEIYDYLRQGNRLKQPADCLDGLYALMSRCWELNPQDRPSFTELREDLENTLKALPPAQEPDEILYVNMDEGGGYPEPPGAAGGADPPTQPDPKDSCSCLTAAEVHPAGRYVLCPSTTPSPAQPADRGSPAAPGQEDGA
UniProt Q08345, sequence (whole entry, looked up): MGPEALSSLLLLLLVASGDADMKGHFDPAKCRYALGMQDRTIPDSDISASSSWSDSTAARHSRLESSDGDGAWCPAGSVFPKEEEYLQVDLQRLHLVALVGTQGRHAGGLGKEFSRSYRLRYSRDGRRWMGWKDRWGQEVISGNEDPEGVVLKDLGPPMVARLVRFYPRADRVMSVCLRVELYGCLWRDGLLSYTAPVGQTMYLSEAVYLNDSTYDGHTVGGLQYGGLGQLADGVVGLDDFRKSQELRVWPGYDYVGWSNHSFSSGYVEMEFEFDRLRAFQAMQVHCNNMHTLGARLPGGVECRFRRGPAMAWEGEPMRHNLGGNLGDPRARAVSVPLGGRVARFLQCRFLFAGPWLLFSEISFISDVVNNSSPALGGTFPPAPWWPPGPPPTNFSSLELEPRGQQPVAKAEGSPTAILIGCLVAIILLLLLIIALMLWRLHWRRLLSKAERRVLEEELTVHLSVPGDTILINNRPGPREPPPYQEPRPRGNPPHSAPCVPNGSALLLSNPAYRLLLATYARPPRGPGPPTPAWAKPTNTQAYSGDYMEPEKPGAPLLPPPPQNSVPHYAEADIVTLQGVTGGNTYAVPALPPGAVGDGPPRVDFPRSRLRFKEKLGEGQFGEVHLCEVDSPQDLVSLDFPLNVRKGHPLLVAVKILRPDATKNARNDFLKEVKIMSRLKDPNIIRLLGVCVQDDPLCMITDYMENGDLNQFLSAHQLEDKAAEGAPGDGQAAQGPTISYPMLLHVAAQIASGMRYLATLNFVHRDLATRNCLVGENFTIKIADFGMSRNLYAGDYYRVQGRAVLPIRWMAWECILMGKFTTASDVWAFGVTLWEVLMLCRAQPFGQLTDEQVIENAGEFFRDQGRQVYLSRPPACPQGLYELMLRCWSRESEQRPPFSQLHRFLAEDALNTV
UniProt Q9UK32, sequence (whole entry, looked up): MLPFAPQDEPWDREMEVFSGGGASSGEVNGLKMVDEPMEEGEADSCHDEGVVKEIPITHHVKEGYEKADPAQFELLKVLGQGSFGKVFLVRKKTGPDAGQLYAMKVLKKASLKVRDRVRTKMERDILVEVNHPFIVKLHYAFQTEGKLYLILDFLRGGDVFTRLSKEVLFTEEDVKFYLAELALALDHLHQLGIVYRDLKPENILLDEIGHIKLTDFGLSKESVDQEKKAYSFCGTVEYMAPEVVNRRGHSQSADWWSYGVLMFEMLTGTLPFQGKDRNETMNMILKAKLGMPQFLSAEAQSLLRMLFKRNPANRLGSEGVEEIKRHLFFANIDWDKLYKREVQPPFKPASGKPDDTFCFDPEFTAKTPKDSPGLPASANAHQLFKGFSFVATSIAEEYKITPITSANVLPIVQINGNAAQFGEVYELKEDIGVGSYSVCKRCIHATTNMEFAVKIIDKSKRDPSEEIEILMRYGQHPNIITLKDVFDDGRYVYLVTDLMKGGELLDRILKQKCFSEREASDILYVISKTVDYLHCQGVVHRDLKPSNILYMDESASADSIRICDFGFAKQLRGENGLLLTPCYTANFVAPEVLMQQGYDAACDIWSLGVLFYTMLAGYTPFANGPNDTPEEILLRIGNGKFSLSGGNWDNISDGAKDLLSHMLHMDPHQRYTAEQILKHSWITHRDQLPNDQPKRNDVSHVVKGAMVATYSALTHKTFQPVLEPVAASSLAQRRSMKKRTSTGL

Study 1
Structure (SMILES): CC(C)n1cnc(-c2ccc(F)cc2)c1-c1ncc(C(=O)Nc2ccc(N3CCN(C)CC3)cc2)[nH]1
Method: phase 2a trial
Host: idiopathic pulmonary fibrosis patients
setting | patients with paronychia
30 mg once daily, grade 3 emergent event | 0%
all arms pooled, grade 4 emergent event | 0%
60 mg once daily, grade 3 emergent event | 0%
60 mg once daily, grade 5 emergent event | 0%
all arms pooled, grade 5 emergent event | 0%
60 mg once daily, grade 4 emergent event | 0%
all arms pooled, grade 1 emergent event | 0%

Study 2
SMILES: CC#CC(=O)N1CCC[C@H]1c1nc(-c2ccc(C(=O)Nc3ccccn3)cc2)c2c(N)nccn12
Mode: inhibitor
Concentration: 1 µM
target | assay | inhibition [%]
Phosphatidylinositol 4,5-bisphosphate 3-kinase catalytic subunit alpha isoform (PIK3CA, Homo sapiens, UniProt P42336, H1047L) | enzyme activity | 20
Hepatocyte growth factor receptor (MET, Homo sapiens, UniProt P08581, Y1235D) | enzyme activity | 0
Ribosomal protein S6 kinase alpha-6, C-terminal kinase domain (RPS6KA6, Homo sapiens, UniProt Q9UK32) | – | 2
Calcium/calmodulin-dependent protein kinase type 1B (PNCK, Homo sapiens, UniProt Q6P2M8) | cell-free assay | 0
Microtubule-associated serine/threonine-protein kinase 1 (MAST1, Homo sapiens, UniProt Q9Y2H9) | enzyme activity | 26
Serine/threonine-protein kinase WNK4 (WNK4, Homo sapiens, UniProt Q96J92) | enzyme activity | 37
Inhibitor of nuclear factor kappa-B kinase subunit beta (IKBKB, Homo sapiens, UniProt O14920) | enzyme activity | 0
Epidermal growth factor receptor (EGFR, Homo sapiens, UniProt P00533, A750P/del747-749) | enzyme activity | 3

Study 3
Compound: CO[C@@H](C)c1c(Nc2ccc([C@H](N(C)C(=O)C3CCS(=O)(=O)CC3)C(F)(F)F)cc2)cnc2cc(Cl)nn12
Effect on: cell-free assay
Method: competition with immobilised ligand
Concentration: 1 µM
target | remaining binding
Mitogen-activated protein kinase 6 (MAPK6, Homo sapiens, UniProt Q16659) | 92%
Receptor-type tyrosine-protein kinase FLT3, autoinhibited (FLT3, Homo sapiens, UniProt P36888) | 100%
Non-receptor tyrosine-protein kinase TNK1 (TNK1, Homo sapiens, UniProt Q13470) | 100%
Tyrosine-protein kinase receptor UFO (AXL, Homo sapiens, UniProt P30530) | 76%
Tyrosine-protein kinase Fyn (FYN, Homo sapiens, UniProt P06241) | 100%
Serine/threonine-protein kinase ULK1 (ULK1, Homo sapiens, UniProt O75385) | 100%
TGF-beta receptor type-2 (TGFBR2, Homo sapiens, UniProt P37173) | 100%
Leucine-rich repeat serine/threonine-protein kinase 2 (LRRK2, Homo sapiens, UniProt Q5S007) | 100%
Epithelial discoidin domain-containing receptor 1 (DDR1, Homo sapiens, UniProt Q08345) | 99%
Tyrosine-protein kinase JAK2, JH1 (JAK2, Homo sapiens, UniProt O60674) | 100%
Serine/threonine-protein kinase TNNI3K (TNNI3K, Homo sapiens, UniProt Q59H18) | 73%

Study 4
Target: STE20-like serine/threonine-protein kinase (SLK, Homo sapiens, UniProt Q9H2G2)
UniProt Q9H2G2, sequence (whole entry, looked up): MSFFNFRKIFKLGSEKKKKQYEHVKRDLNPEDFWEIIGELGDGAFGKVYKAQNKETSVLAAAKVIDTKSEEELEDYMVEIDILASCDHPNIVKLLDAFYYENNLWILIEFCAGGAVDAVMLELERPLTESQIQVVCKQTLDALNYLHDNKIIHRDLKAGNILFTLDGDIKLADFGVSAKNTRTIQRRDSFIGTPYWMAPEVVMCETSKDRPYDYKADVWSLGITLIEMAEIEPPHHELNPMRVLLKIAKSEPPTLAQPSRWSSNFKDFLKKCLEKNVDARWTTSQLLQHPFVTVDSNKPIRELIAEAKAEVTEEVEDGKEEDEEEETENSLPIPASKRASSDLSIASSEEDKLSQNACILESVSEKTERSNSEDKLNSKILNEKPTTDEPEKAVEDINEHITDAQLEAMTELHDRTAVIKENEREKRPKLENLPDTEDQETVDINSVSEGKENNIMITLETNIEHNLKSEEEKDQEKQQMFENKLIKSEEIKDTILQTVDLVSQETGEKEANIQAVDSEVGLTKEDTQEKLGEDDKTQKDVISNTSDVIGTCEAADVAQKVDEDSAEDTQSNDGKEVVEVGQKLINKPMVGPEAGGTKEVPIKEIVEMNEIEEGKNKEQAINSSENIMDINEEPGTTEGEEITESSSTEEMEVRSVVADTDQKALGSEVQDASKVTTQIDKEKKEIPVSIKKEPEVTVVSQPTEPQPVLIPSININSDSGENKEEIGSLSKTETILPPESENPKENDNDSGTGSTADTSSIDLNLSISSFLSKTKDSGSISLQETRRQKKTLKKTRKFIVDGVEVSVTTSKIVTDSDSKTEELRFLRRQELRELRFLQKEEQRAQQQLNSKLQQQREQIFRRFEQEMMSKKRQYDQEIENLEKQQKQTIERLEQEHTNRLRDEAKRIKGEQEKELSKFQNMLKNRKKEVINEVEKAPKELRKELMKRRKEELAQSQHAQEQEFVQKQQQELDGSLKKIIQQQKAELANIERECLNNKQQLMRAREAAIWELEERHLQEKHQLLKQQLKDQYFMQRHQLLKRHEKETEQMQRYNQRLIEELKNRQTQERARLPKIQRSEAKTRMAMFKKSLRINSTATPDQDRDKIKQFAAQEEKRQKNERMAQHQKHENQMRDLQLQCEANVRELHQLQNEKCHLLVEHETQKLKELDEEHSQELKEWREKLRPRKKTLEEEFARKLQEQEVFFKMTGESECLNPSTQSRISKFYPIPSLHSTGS
Effect on: enzyme activity
Mode: inhibitor
Concentration: 0.5 µM
Relative to: control
SMILES | remaining activity
Cc1cc2ncc(-c3ccccc3)nc2cc1C | 91.9%
Nc1cccc(-c2cc3c(Oc4cccc(O)c4)ncnc3[nH]2)c1 | 64.1%
CCN(CC)C(=O)c1ccc(Nc2nc(OCC3CCCCC3)c3[nH]cnc3n2)cc1 | 71.2%
Cc1nc2cc3nc(-c4cccs4)cnc3cc2n1C | 94.5%
C[C@@H]1CCN(C(=O)CC#N)C[C@@H]1N(C)c1ncnc2[nH]ccc12 | 89.2%
CN(C)C[C@H]1CCn2c(c(C3=C(c4cn(C)c5ccccc45)C(=O)NC3=O)c3ccccc32)C1 | 83.1%
Ic1cccc(CSc2nnc(-c3ccncc3)o2)c1 | 98.6%
Cc1cn(-c2cc(NC(=O)c3ccc(C)c(Nc4nccc(-c5cccnc5)n4)c3)cc(C(F)(F)F)c2)cn1 | 102%
O=C1c2ccccc2-c2n[nH]c3cccc1c23 | 91.6%
COc1cc2c(cc1OC)-c1[nH]nc(Nc3cccc(F)c3)c1C2 | 95.4%
O=C1C(Cl)=C(N2C(=O)CCC2=O)C(=O)c2ccccc21 | 104%
COc1cc2ncnc(Nc3ccc(O)c(Br)c3)c2cc1OC | 50.3%
O=C(Nc1cccc(Nc2nccc(Nc3cccc(C(F)(F)F)c3)n2)c1)C1CC1 | 92.9%
CN([C@@H](Cc1ccc(OS(=O)(=O)c2cccc3cnccc23)cc1)C(=O)N1CCN(c2ccccc2)CC1)S(=O)(=O)c1cccc2cnccc12 | 101%
Cn1nc2c3c(cccc31)C(=O)c1ccccc1-2 | 103%
N#Cc1c(NC(=O)c2cccc3ccccc23)sc2c1CCCC2 | 99.2%
O=C(NC(NC(=S)Nc1ccc(F)c([N+](=O)[O-])c1)C(Cl)(Cl)Cl)C(c1ccccc1)c1ccccc1 (stereo not shown) | 95.2%
O=c1cc(-c2cccc3c2Sc2ccccc2S3)oc(N2CCOCC2)c1 | 93.5%
N#C/C(=C\c1ccc(O)c(O)c1)C(=O)NCc1ccccc1 | 99.1%
CCN(CC)CCNC(=O)c1c(C)[nH]c(/C=C2\C(=O)Nc3ccc(Cl)cc32)c1C | 38%
c1ccc(-c2cnc(Nc3ccc(OCCN4CCCC4)cc3)s2)cc1 | 96.7%
COc1cc2ncnc(Nc3cccc(Cl)c3)c2cc1OC | 64.6%
CCOc1nc(NC(=O)Cc2cc(OC)ccc2OC)cc(N)c1C#N | 103%

Excerpt of the above (study 2):
target | assay | inhibition [%]
Phosphatidylinositol 4,5-bisphosphate 3-kinase catalytic subunit alpha isoform (PIK3CA, Homo sapiens, UniProt P42336, H1047L) | enzyme activity | 20
Hepatocyte growth factor receptor (MET, Homo sapiens, UniProt P08581, Y1235D) | enzyme activity | 0
Ribosomal protein S6 kinase alpha-6, C-terminal kinase domain (RPS6KA6, Homo sapiens, UniProt Q9UK32) | – | 2
Calcium/calmodulin-dependent protein kinase type 1B (PNCK, Homo sapiens, UniProt Q6P2M8) | cell-free assay | 0
Microtubule-associated serine/threonine-protein kinase 1 (MAST1, Homo sapiens, UniProt Q9Y2H9) | enzyme activity | 26
Serine/threonine-protein kinase WNK4 (WNK4, Homo sapiens, UniProt Q96J92) | enzyme activity | 37
Inhibitor of nuclear factor kappa-B kinase subunit beta (IKBKB, Homo sapiens, UniProt O14920) | enzyme activity | 0
